# Assay results of several laboratories.
# Numbered parts are unrelated; each lists some results of a single study. Changes are numbered by the printed parent chain.

# Study 1 — target: CCNB1, cyclin fold, Cln2 fusion (human); technique: yeast growth competition, sequencing; matrix: yeast; setting: weak parent motif; baseline: not given; reading: higher = stronger binding
# Starting sequence: CDKN1A docking peptide (human); SKACRRLFGPVDS
Substitution,normalised enrichment score
L7D,0.171
D12K,-0.228
F8H,0.249
D12Q,-0.15
L7T,0.299
F8T,-0.412
P10D,0.322
R5I,-0.0813
C4T,0.407
D12G,-0.152
D12E,-0.0508
V11Q,0.0546
R6D,0.166
V11K,0.14
V11P,-0.113
V11G,0.061
F8L,-0.401
G9K,0.373
R6Q,0.515

# Study 2 — technique: protein-binding microarray; molecule type: double-stranded DNA, one strand shown; matrix: in vitro; concentration: 2200 nM top; setting: 60-bp whole probe; with: salmon DNA 0.4 mg/ml; baseline: random background probes; reading: higher = stronger binding; constant ends, left off below: GCCTAGCAC … GTCTTGATTCGCTTGACGCTGCTG
# Target: Interferon regulatory factor 7, full length, phosphomimetic (IRF7, Homo sapiens, UniProt Q92985, residues 1-503, S471D/S472D/S475D/S476D/S477D/S483D/S484D/S487D)
# Construct (chain): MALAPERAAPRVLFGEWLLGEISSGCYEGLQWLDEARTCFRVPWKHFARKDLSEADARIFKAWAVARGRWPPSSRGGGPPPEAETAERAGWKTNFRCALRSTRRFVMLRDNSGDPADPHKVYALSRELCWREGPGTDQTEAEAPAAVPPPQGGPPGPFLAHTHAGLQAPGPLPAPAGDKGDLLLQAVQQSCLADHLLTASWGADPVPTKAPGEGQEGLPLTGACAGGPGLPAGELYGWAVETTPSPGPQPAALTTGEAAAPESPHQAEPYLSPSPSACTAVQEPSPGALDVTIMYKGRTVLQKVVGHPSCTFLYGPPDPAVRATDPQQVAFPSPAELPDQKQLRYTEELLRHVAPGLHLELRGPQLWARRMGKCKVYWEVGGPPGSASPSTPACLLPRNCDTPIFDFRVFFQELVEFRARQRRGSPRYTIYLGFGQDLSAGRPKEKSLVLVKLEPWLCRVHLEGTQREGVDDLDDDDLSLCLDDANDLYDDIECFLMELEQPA
Strand,fitted relative affinity [z-score]
GACGGTTTAGGTTCCGGGACGTGCTAG,0.826
TTAGGTATCGACTATCGGTTAGTGCTA,0.51
GACGATCTCAGACTCGAGACGTGCTAG,0.0203
TGCAACATCTACAATGGCTTTGTGCTA,-0.0825
GACGGACTTGGTCTCGGGACGTGCTAG,-0.498
TTAGGTTCCGGTTTCGCTTAGTGCTAG,6.96
GAAGGACTGGGGTTTCGGGACGTGCTA,0.786
TTCGGTCTCGGTTTCGGTTAGTGCTAG,7.23
GACGATATCGGGACTGGAGGCGTGCTA,-0.419
TCATCTCCGGGGTCTGTGACTGTGCTA,0.445
TTAGGTTCCGGTTTCGGTGAGTGCTAG,5.23
GACGCTTTCGACTTTCGGGACGTGCTA,9.72
TCAGCTATTTTATATGCTACTGTGCTA,0.32
TTAGATCTCCGTATCGATTAGTGCTAG,0.635
GACGGTATCCTACCGCTGACGTGCTAG,0.31
TCACTTTCCTTTATGTCACTGTGCTAG,5.66
GACGGTCTTCTTATCCTGACGTGCTAG,0.852

# Study 3 — technique: RNA Bind-n-Seq; molecule type: RNA; matrix: in vitro; concentration: 100 nM; setting: RNA with constant flanks, ends assumed; baseline: input RNA pool; reading: higher = stronger binding
# Target: RING finger protein unkempt homolog, zinc fingers 1-6, SBP tag (UNK, Homo sapiens, UniProt Q9C0B0, residues 30-357)
# UniProt Q9C0B0, sequence (30-357, looked up): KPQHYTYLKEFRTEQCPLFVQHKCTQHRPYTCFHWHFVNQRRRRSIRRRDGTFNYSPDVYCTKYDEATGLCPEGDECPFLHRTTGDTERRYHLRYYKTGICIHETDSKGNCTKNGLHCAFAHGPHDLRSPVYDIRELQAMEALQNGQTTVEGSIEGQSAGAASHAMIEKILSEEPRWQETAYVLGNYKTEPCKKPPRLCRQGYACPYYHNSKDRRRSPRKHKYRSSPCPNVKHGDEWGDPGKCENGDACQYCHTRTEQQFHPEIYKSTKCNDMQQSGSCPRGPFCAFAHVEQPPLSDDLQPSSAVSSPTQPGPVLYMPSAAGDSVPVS
# Constant ends, left off below: GGGAGUUCUACAGUCCGACGAUC … CAACAGAGGAUUGAGCAUCA
Strand,bound/input enrichment [ratio]
GAUUUGGACCUUGGAGCUGAACCAGGGAGCCCGCAAAAGUAAAGCAGACUUAUAAAAUUACCGCUAUGUGCAGCUGCACAACACAGUCCUUCCACCCGCAGCUGUGUUAAAGUAUUUAUA,0.267
GAGCUAAAGGAGUCCGCAUCUUUAUUUUUGUAUCAAAAAUAAAGGUUAUUUUGAAAUUAUCCGGAUUUUUACACAAUUCUGAAAUCUGUUGCUUUUGUAAACAAAUUGUUUGAUCUCCGU,0.274
ACAGGAGCAGCACCGGCUGUUUGAGCUUUGGGGAAAUGAACUUUGCUUUUUAUAUUUAACCCGGAUACUUUUAUAUGAUGGGUGCUUUGAGUGUGAAUGCAGCAGGCUCUCUUGUUUCCG,0.611
UGAGCAUACAUAUACAAUGUGUUUCAAAUGCUGCUUGUAAAAUUAAACCAUCAUCCCGAACCGAGUUAAUUUAUUAUAAUCAAGCUACAAACCGGUUUUCUUAAACCAGAGAUGCACUGC,0.433
AAGUAUCCCGGUUUACUGUGUUGAGUUGGCAUUGUACAGAAAUUAACAGCCAUAUUGGUCCCGAAACGUUAAACUUAAUUUUUUUCCAUUUGUACAGGGGUAACGCACUGUAUUAAAUAU,0.34
ACACUUAUAUUGUGGCAUACCGUCAACAUGGAAGCCGACCAGCUCUGCUGAUUUGAAAUUCCGAUUUUUUAAAUUAUGUACUGGGGACAGGUUUUUGUCGCUUUACAUUGCUUCCCCGUU,0.545
CACAUCCGGUGAUAUUUGGCCUGGCCUUUCAGCUUAUGAUAACCGUCCCCGAUCACCCCACCGUCCUUCACCUAUUGCUACACCACCCCGUCAGAGUUCAUCUUGCUCUGAUGCUCCCAU,0.935

# Study 4 — technique: protein binding microarray; molecule type: double-stranded DNA, one strand shown; matrix: in vitro; concentration: not given; baseline: not given; reading: higher = stronger binding
# Target: Histone acetyltransferase KAT6A, winged helix 1, GST fusion (KAT6A, Homo sapiens, UniProt Q92794, residues 1-85)
# Setting: 8-mer, flanks averaged, mean of 2 arrays, mostly near background
# Construct (chain): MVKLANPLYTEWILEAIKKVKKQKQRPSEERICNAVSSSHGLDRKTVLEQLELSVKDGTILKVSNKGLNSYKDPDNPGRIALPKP
Strand,E-score
GCCTCCTA,-0.0356
GTGCCCCA,-0.111
CCATAACG,0.0761
AGGCTGTA,-0.197
CACAACGA,0.00156
AACCATAC,-0.0772
AGTGGTGG,-0.169
CCGTTATC,-0.00924
TCGATCGA,-0.0162
CCGCAGAA,0.342
ATGACTTC,-0.171
CCAAGGAA,-0.0555
TAGTGGGA,-0.336
GATTTTAA,0.00549
CTAGATCA,-0.155
CACAAGAG,-0.196
AGGTTTAG,-0.198
CGAACTCA,-0.101
CTATTGAC,-0.166
ACGTAAGC,-0.0357
CTCCTAAC,-0.117
GACTACCC,0.0326
GGACATGA,0.0932
ATTTCGCG,0.21
ACGCGCTA,0.37

# Study 5 — technique: RNA Bind-n-Seq; molecule type: RNA; matrix: in vitro; concentration: 365 nM; baseline: no-protein control; reading: higher = stronger binding
# Target: RNA binding protein fox-1 homolog 2, RRM domain, GST-SBP tag (RBFOX2, Homo sapiens, UniProt O43251-10, residues 100-194)
# Setting: natural RNA segment, single round, ends assumed
# Constant ends, left off below: GGGAGUUCUACAGUCCGACGAUC … UGGAAUUCUCGGGUGCCAA
# Residues (chain): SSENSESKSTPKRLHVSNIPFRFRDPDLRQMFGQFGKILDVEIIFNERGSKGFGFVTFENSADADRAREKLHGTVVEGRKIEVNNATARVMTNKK
Strand,RBNS enrichment (R)
GCCAAAUAUUAGACUUGAUGUGCAAUCUUCGGUCCUUUUUAAUCUGGGGUAUUAUAGGCAGUACUUUAAAUUGCAAAGUCUUCCGGGCCUAUUUUCCUCUACAUUUUUGU,0.766
CCCCUACCCAUUUUCUCUGGAGGUGUCCAGCCUCUUCCAACCCCCUCCCCAACUCUAGGGGAGAGCUGCUAGUGUGGAAAAUGACUGUUUUAUAAGGAAAUGGAGAAAAA,1.07
AGAUGUUGCAGGACCUUGUUUUAAAAUCAACUCCCUUCUCUCCCAGCGGGGGGCCUCUUCCUUCCUGGUGCUGGUCAGGGGGCCUGGAAACAAACUUUCUGAGGCUGGGU,0.342
UCAUUCUUGGAGGUGCUUUGAAAUUUUAGGUAGAAUAUAAUCGAAAUUAUGGAGGUUCCUUAGUGCUCAAUAAUAUAAGACCUGGUGUUAUUAGAACGAGUCUUUCUUAU,1.94
CUGAUGUGUCCUGGGUUGGCAGGUGCCUGGCAGUCCAGACAUCACAGACCCCAGAACAAGGUGAAACCCCCCCCCCCCAUUUCUGGCCUUGUUUUUCUACCUCCCGCACU,0.494
ACACUGAAUUGUAUUUAAUCAGCGUGUAUUCCAUUUGCAUUGAAGCAUUAAAGAUUAUUUUCCUUAAAUCUCUUCAAGGCCUUCUUAUUGCUGUUAGAAUAGUGUUGUAU,0.288
UCUCAGGCCCUGCUCACUCCCGGGGCCACCAAACGGGCCCCUCUCUCGGGGGAACCGGACAGCAGCUUGGCAAAGGCCUCCCUAAAAGGCCGCAUUUCUGACCUGAGCCC,0.404
UAACUUUCUAUCCAGAAAAAGAGAUUAUUUGGGACUUGAGAUUUGCAGUGAUACCAACUUAUAGCAAUGAUGUACUUUAAGGGAACUACCCAACUAUGUUGUGAUAGAAG,0.502
CACAAGGCAGAGUUACUCGUGAGAAAGGGCAGCAGUGUUGUGUGCAUCUGUCAGUCAGGUUGUAUGGGCUGGAGGCUGGCAGGUCUGCAUGGUAGGCUGAGUUUGCUGUC,3.12
CUUUACAGUUUUUUUCUUUGUGUAGUAUCUUGAAAUCCUGGAAAAUUCUAUGGAAUAGUUCUGUAUAUAGGGCACAAGUAAAGGCAUUGUCCAAAGUUUAUUUAUUUAUU,0.462
CAGACUGACUAACAUGCAUUAGCAAAUGGAGCAUCAGUAGGUAGCAACAUGAUAAUUUAUGUAACUGAUAGCUUCUGUCCUUAUUAGUACACUUAACAUUUGAGACUAGU,1.86
CCCCUCUCCAAAGUGAGCAGGCAGGUUUUAAACAGCUUAACUACUGACCAGUUAUAAGACUCGCUUUUCAGUCAUGGAUCCUGCAGAAAUCUGAGACCCACCCAUAUCCU,0.234

# Study 6 — technique: aptamer microarray, sandwich; molecule type: DNA with 2'F-ANA; matrix: in vitro; concentration: 200 nM; with: Cy3 exosite-II aptamer, 400 nM; reading: higher = stronger binding; strand: GGTTGGTGTGGTTGG
# Target: Prothrombin, mature alpha-thrombin (F2, Homo sapiens, UniProt P00734)
# Setting: whole 15-mer aptamer, many near background
Modification,mean fluorescence intensity
2'F-ANA at 2 5 6 8 10 12 13 14,42.6 a.u.
2'F-ANA at 2 3 5 8 11 12 13 14,172 a.u.
2'F-ANA at 1 3 5 7 9 10 12,49.8 a.u.
2'F-ANA at 1 2 3 4 9 10 11,58.3 a.u.
2'F-ANA at 1 3 4 5 8 9 10 11 14 15,51.2 a.u.
2'F-ANA at 3 4 6 7 8 9 11 12 13,649 a.u.
2'F-ANA at 3 4 6 9 10 13 15,200 a.u.
2'F-ANA at 1 3 4 6 8 10 12 13,64.9 a.u.
2'F-ANA at 1 2 3 4 7 12 15,472 a.u.
2'F-ANA at 1 2 3 4 7 9 12 13 14 15,73.7 a.u.
2'F-ANA at 2 7 8 9 12 15,678 a.u.
2'F-ANA at 5 6 7 8 9 13,58 a.u.
2'F-ANA at 3 4 5 6 8 9 10 13 15,49.9 a.u.
2'F-ANA at 1 3 7 12 13 14,132 a.u.
2'F-ANA at 5 10 12 13 15,44.7 a.u.
2'F-ANA at 1 2 6 7 9 10 11 12 14,64.1 a.u.
2'F-ANA at 1 5 6 7 8 9 11 14,50.1 a.u.
2'F-ANA at 2 6 7 9 10 11 12 14 15,87.6 a.u.

# A few entries again (study 2):
Strand,fitted relative affinity [z-score]
GACGGTTTAGGTTCCGGGACGTGCTAG,0.826
GACGATCTCAGACTCGAGACGTGCTAG,0.0203
TTCGGTCTCGGTTTCGGTTAGTGCTAG,7.23
TCAGCTATTTTATATGCTACTGTGCTA,0.32
GAAGGACTGGGGTTTCGGGACGTGCTA,0.786
TCACTTTCCTTTATGTCACTGTGCTAG,5.66
TGCAACATCTACAATGGCTTTGTGCTA,-0.0825
TCATCTCCGGGGTCTGTGACTGTGCTA,0.445
GACGGTATCCTACCGCTGACGTGCTAG,0.31
TTAGGTTCCGGTTTCGGTGAGTGCTAG,5.23
GACGGACTTGGTCTCGGGACGTGCTAG,-0.498
